Results of several laboratories.
Lines come from different studies, so protocols differ. ± marks the error that the study gave.
Spike glycoprotein: Spike glycoprotein (Severe acute respiratory syndrome coronavirus 2, UniProt P0DTC2)
rep main protease: Replicase polyprotein 1ab, main protease (rep, Severe acute respiratory syndrome coronavirus 2, UniProt P0DTD1)
Sequence of UniProt Q5XXP4 (whole entry, looked up): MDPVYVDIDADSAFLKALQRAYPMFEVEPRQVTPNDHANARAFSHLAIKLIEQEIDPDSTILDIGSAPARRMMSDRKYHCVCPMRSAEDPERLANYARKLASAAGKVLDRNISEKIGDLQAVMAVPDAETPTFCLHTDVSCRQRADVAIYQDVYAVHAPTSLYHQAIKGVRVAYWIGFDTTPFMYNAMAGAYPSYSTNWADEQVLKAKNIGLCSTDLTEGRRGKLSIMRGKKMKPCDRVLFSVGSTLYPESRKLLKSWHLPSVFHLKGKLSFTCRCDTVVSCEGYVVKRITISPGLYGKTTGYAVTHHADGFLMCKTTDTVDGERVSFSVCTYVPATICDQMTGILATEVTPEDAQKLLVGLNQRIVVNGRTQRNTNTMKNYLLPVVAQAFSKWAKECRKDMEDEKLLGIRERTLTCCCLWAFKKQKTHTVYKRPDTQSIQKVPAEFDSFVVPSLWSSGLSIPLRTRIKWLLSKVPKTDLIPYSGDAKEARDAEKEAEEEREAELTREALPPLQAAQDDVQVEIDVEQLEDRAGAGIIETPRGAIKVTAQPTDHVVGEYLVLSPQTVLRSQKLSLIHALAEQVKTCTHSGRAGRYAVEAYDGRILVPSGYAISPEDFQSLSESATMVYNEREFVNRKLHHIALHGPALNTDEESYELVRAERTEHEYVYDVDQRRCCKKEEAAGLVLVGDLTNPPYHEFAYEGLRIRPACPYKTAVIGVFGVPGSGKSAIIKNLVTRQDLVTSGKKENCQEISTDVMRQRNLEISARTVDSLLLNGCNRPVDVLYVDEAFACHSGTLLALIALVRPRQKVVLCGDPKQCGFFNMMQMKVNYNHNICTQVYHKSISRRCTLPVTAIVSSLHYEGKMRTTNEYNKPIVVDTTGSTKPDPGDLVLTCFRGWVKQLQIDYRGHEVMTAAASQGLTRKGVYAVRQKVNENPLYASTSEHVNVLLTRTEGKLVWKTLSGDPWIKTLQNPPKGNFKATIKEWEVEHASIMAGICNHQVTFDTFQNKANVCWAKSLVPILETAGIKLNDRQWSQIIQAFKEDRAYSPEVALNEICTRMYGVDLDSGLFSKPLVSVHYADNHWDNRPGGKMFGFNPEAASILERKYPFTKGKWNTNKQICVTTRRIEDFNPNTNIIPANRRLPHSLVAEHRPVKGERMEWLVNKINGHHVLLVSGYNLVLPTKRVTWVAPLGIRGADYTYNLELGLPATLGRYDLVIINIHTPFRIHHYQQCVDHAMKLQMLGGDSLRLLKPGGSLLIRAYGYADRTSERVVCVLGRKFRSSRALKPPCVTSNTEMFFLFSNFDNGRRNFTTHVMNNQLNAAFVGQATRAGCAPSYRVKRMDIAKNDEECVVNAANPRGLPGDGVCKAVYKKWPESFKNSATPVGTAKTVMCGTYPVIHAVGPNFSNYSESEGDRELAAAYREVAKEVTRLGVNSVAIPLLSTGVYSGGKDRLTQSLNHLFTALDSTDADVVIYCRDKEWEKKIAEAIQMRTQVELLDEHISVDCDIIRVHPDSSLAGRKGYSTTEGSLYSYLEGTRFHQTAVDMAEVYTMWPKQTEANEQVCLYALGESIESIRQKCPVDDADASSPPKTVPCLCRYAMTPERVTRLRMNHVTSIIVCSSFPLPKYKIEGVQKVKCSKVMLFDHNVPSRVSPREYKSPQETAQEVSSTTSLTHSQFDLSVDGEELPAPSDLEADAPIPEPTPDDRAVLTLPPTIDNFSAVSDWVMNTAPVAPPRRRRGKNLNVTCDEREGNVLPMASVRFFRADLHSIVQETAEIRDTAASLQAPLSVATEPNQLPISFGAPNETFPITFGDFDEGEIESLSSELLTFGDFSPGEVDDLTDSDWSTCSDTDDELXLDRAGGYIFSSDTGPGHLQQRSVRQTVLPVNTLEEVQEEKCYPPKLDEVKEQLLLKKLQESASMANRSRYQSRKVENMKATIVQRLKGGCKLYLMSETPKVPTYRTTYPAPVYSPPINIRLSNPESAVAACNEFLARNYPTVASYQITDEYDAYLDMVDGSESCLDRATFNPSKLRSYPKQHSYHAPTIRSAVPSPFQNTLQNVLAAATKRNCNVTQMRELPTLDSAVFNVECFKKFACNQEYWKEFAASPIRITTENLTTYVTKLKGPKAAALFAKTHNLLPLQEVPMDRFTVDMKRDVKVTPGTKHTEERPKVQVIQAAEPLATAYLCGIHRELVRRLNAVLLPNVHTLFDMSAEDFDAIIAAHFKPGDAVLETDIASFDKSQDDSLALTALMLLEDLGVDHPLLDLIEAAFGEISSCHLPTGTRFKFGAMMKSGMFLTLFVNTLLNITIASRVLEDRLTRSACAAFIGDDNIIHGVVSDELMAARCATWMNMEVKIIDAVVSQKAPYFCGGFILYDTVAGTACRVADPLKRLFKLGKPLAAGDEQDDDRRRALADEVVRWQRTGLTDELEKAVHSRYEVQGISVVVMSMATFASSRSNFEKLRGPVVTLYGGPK
Sequence of UniProt Q7BQ98 (whole entry, looked up): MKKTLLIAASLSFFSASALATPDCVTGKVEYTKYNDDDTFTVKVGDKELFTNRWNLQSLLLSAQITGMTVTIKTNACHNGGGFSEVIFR

C[C@H](CCC(=O)O)[C@H]1CC[C@H]2[C@@H]3CC[C@@H]4C[C@H](O)CC[C@]4(C)[C@H]3C[C@H](O)[C@]12C
Emax (ACE2 (Homo sapiens, UniProt Q9BYF1); spike protein binding; added: SARS-CoV-2 spike protein): -69.1%

COc1cc(O)c(CC=C(C)C)c2c1C(=O)CC(c1ccc(O)cc1)O2 (centres unmarked)
koff (Spike glycoprotein; binding, BLI): 0.019 s⁻¹

CC(C)(O)C(F)(F)C(=O)N[C@@H](CNc1ccc2nnnn2n1)c1ccc2ccccc2c1
inhibition (rep main protease; enzyme activity, inhibitor; 5 µM, mean of runs): 12.6%

CC(C)[C@H](NC(=O)c1ccc2ccccc2n1)C(=O)N[C@@H](CC(=O)O)C(=O)COc1c(F)cccc1F
inhibition (rep main protease; reporter gene (mKate2), inhibitor; 20 µM): 0.509%

CS(=O)(=O)C=CCNC(=O)c1ccc2c(c1)NC(=O)CC2
kinact (Polyprotein P1234, nsP2 protease domain (Chikungunya virus, UniProt Q5XXP4); time-dependent inhibitor): 0.0024 ± 0.0001 s⁻¹

C=C1C(=O)[C@@]23[C@H](O)C[C@@H]4C(C)(C)C(=O)CC[C@@]4(C)[C@@H]2CC[C@@H]1[C@H]3O
inhibition (rep main protease; reporter gene (mKate2), inhibitor; 20 µM): -1.77%

O=C(c1ccc2c(c1)COC2)N1CCCC[C@H](C2CN(C(=O)c3cncc4[nH]cnc34)C2)C1
inhibition (rep main protease; enzyme activity, inhibitor; 5 µM, run 1): 14.2%

COc1ccc(C[C@@H]2c3cc(Oc4cc(C[C@@H]5c6cc(O)c(OC)cc6CCN5C)ccc4O)c(OC)cc3CCN2C)cc1
kon (Spike glycoprotein; binding, BLI): 959 M⁻¹ s⁻¹

CCCCCCc1ccc(O)cc1O
inhibition (rep main protease; reporter gene (mKate2), inhibitor; 20 µM): -0.105%

O=C(NCCOc1cc(OCCNC(=O)OCc2cn([C@@H]3O[C@H](CO)[C@H](O[C@H]4O[C@H](CO)[C@H](O)[C@H](O)[C@H]4O)[C@H](O)[C@H]3O)nn2)cc(C(=O)O)c1)OCc1cn([C@@H]2O[C@H](CO)[C@H](O[C@H]3O[C@H](CO)[C@H](O)[C@H](O)[C@H]3O)[C@H](O)[C@H]2O)nn1
Hill slope (Shiga toxin subunit B (stxB, Shigella dysenteriae, UniProt Q7BQ98); Escherichia coli): -1.48

O=C(N[C@@H](CNC(=O)[C@@H]1CCCc2cn[nH]c21)c1ccc2ccccc2c1)c1cccnc1
inhibition (rep main protease; enzyme activity, inhibitor; 5 µM, run 1): 13.6%

CC(C)C[C@H](NC(=O)[C@H](Cc1ccccc1)NC(=O)c1cnccn1)B(O)O
inhibition (rep main protease; reporter gene (mKate2), inhibitor; 20 µM): -0.662%

O=C1O[C@H]2[C@@H]3OC(=O)c4cc(O)c(O)c(O)c4-c4c(cc(O)c(O)c4O)C(=O)OC[C@H]2O[C@@H](OC(=O)c2cc(O)c(O)c(O)c2)[C@@H]3OC(=O)c2cc(O)c(O)c3c2[C@@H]2C1=CC(=O)[C@](O)(O3)C2(O)O
koff (Spike glycoprotein; binding, BLI): 0.000334 s⁻¹

Cc1ccc(C(=O)N2CC3(CCC3)C[C@H]2CNC(=O)c2cncc3[nH]cnc23)cc1O
inhibition (rep main protease; enzyme activity, inhibitor; 5 µM, run 2): 16.1%

Excerpt of the above:
O=C(c1ccc2c(c1)COC2)N1CCCC[C@H](C2CN(C(=O)c3cncc4[nH]cnc34)C2)C1
inhibition (rep main protease; enzyme activity, inhibitor; 5 µM, run 1): 14.2%

O=C(NCCOc1cc(OCCNC(=O)OCc2cn([C@@H]3O[C@H](CO)[C@H](O[C@H]4O[C@H](CO)[C@H](O)[C@H](O)[C@H]4O)[C@H](O)[C@H]3O)nn2)cc(C(=O)O)c1)OCc1cn([C@@H]2O[C@H](CO)[C@H](O[C@H]3O[C@H](CO)[C@H](O)[C@H](O)[C@H]3O)[C@H](O)[C@H]2O)nn1
Hill slope (Shiga toxin subunit B (stxB, Shigella dysenteriae, UniProt Q7BQ98); Escherichia coli): -1.48
